Published values gathered from unrelated publications.
Each line is one published result; not all experiments were run side by side. ± gives the spread as reported.
UniProt O43293, sequence (whole entry, looked up): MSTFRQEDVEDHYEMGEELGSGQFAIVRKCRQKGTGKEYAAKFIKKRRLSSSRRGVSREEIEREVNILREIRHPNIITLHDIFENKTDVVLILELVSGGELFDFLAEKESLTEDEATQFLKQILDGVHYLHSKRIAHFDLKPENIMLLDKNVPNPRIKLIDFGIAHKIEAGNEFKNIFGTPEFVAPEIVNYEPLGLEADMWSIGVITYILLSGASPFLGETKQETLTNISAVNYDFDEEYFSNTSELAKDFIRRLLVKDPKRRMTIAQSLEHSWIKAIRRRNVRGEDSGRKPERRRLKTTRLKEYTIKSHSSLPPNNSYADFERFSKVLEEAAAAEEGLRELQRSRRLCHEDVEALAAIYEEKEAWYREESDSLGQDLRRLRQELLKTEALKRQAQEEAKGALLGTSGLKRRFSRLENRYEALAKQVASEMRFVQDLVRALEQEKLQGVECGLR

CS(C)(=O)=Nc1ccc(-c2ccc(-c3nc4cc(O[C@@H]5CO[C@H]6[C@@H]5OC[C@H]6O)[nH]c4cc3F)cc2)cc1
inhibition (DAPK3 (Homo sapiens, UniProt O43293); enzyme activity, inhibitor; 10 µM): -12%

[O-][N+]1=C(c2ccc(Cl)cc2)C2=NCCCN2c2ccccc21
MIC (Clostridioides difficile): 8 to 16 µg/mL

CC[C@H](C)[C@H](NC(=O)[C@H](CCCNC(=N)N)NC(=O)[C@H](CO)NC(=O)[C@H](Cc1ccc(O)cc1)NC(=O)[C@@H](NC(=O)[C@@H](NC(=O)[C@H](C)NC(=O)CNC(=O)[C@H](CCCCN)NC(=O)[C@H](CCCCN)NC(=O)CCNC(=O)CCCCCNC(=O)[C@H](CCCNC(=N)N)NC(=O)CCCCCNC(=O)[C@H](CCCNC(=N)N)NC(=O)[C@H](CCCNC(=N)N)NC(=O)CCCCCNC(=O)[C@H](CCCNC(=N)N)NC(=O)[C@H](CCCNC(=N)N)NC(=O)CCCCCNC(=O)[C@H](CCCNC(=N)N)NC(=O)[C@H](CCCNC(=N)N)NC(=O)CCCCCNC(=O)[C@@H](N)CCCNC(=N)N)C(C)C)[C@@H](C)O)C(=O)N[C@@H](CO)C(=O)NCC(=O)N[C@@H](CCC(N)=O)C(=O)N[C@@H](Cc1ccc(O)cc1)C(=O)N[C@@H](CCCCN)C(=O)O
MIC (Escherichia coli; ATCC 25922; 1 h, 37 °C, after 90% fetal bovine serum): 48 µM

CC[C@H](C)[C@H](NC(=O)[C@H](C)NC(=O)CNC(=O)[C@H](C)NC(=O)[C@H](CCCCN)NC(=O)[C@H](CO)NC(=O)[C@H](C)NC(=O)[C@H](CCSC)NC(=O)CN)C(=O)N[C@@H](C)C(=O)NCC(=O)N[C@@H](CCCCN)C(=O)N[C@H](C(=O)N[C@@H](C)C(=O)N[C@@H](CCCCN)C(=O)N[C@H](C(=O)N[C@@H](C)C(=O)N[C@@H](CC(C)C)C(=O)N[C@@H](CCCCN)C(=O)N[C@@H](C)C(=O)N[C@@H](CC(C)C)C(N)=O)C(C)C)[C@@H](C)CC
MIC (Escherichia coli; 3538, nalidixic acid-resistant, minimal salts medium; 18 h, 37 °C): 20 µg/mL

[O-][N+]1=C(c2ccc(Cl)cc2)C2=NCCCCN2c2ccccc21
MIC (Clostridioides difficile): 0.25 to 4 µg/mL

O=C1NC2(CC2)COc2ncc(F)cc2[C@H]2COCCN2c2ccn3ncc1c3n2
organ-to-body weight ratio (Sprague-Dawley rat, female, ovaries; oral, 10 mg/kg/day, 4 weeks dosing, end of recovery): 0.036 ± 0.005%

CC1COC2=C1C(=O)C(=O)c1c2ccc2c1C(OC(=O)CNC(=O)C(N)CCC(=O)O)CCC2(C)C (mixture of isomers)
MIC (Cutibacterium acnes; GDMCC 1.243; 48 h, anaerobic): 63 µM

CC[C@H](C)[C@@H]1NC(=O)[C@H](CO)NC(=O)C(C)(CCCCN)NC(=O)[C@@H]2CSSC[C@@H](C(=O)N[C@@H](Cc3ccc(O)cc3)C(N)=O)NC(=O)[C@H](CCCCN)NC(=O)[C@@H]3CSSC[C@H](NC(=O)[C@H](CCCNC(=N)N)NC(=O)C(C)(CC(C)C)NC(=O)[C@H](CC(=O)O)NC(=O)[C@H](CC(=O)O)NC(=O)[C@H](CCC(=O)O)NC(=O)[C@H](CC(N)=O)NC(=O)[C@H](Cc4c[nH]c5ccccc45)NC(=O)C(C)(CC)NC(=O)CNC(=O)[C@H](CC(N)=O)NC(=O)[C@@H](NC(=O)CNC(=O)[C@H](Cc4ccccc4)NC(=O)CN)CSSC[C@H](NC(=O)[C@H](Cc4ccc(O)cc4)NC(=O)CNC(=O)CNC(=O)[C@H](CCCCN)NC(=O)[C@H](Cc4ccc(O)cc4)NC(=O)[C@H]4CCCN4C(=O)[C@@H]4CCCN4C1=O)C(=O)N[C@@H](C)C(=O)N[C@@H](CCCCN)C(=O)N1CCC[C@@H]1C(=O)NCC(=O)N[C@@H](Cc1ccccc1)C(=O)N[C@@H](C(C)C)C(=O)N3)C(=O)N[C@@H](Cc1c[nH]cn1)C(=O)NC(C)(C)C(=O)N[C@@H](Cc1c[nH]cn1)C(=O)N2 (stereo partly drawn)
MIC (Streptococcus pneumoniae; broth microdilution; BS-441; 18 h): 0.5 µM

CC[C@H](C)[C@H](NC(=O)[C@H](CCCCN)NC(=O)[C@H](CCCCN)NC(=O)[C@H](Cc1ccccc1)NC(=O)[C@H](Cc1ccccc1)NC(=O)[C@H](CCCCN)NC(=O)[C@H](CCCCN)NC(=O)[C@H](Cc1ccccc1)NC(=O)[C@H](CCCNC(=N)N)NC(=O)[C@@H](N)CCCCN)C(=O)N[C@@H](CCCCN)C(=O)N[C@@H](CCCCN)C(=O)N[C@@H](CO)C(=O)N[C@H](C(=O)N[C@@H](CCCCN)C(=O)N[C@@H](CCCCN)C(=O)N[C@@H](CCCNC(=N)N)C(=O)N[C@H](C(=O)N[C@@H](CCCCN)C(=O)N[C@@H](CCCCN)C(=O)N[C@@H](CC(C)C)C(=O)N[C@@H](Cc1ccccc1)C(=O)N[C@@H](CCCCN)C(=O)N[C@@H](CCCCN)C(=O)N1CCC[C@H]1C(=O)N[C@@H](CCCNC(=N)N)C(=O)N[C@H](C(=O)N[C@H](C(=O)N1CCC[C@H]1C(=O)N[C@H](C(=O)N[C@@H](CO)C(=O)N[C@H](C(=O)N1CCC[C@H]1C(=O)N[C@@H](Cc1ccccc1)C(=O)O)[C@@H](C)CC)[C@@H](C)CC)[C@@H](C)CC)C(C)C)C(C)C)C(C)C
MIC (Escherichia coli; broth microdilution; E23 clinical isolate; 20 h): 4 µg/mL

CC(C)C[C@H](NC(=O)[C@@H](NC(=O)[C@H](CCCNC(=N)N)NC(=O)[C@H](CCC(N)=O)NC(=O)[C@H](Cc1ccccc1)NC(=O)[C@H](Cc1ccc(O)cc1)NC(=O)[C@H](CC(N)=O)NC(=O)[C@H](Cc1c[nH]c2ccccc12)NC(=O)[C@@H](NC(=O)[C@H](CCCNC(=N)N)NC(=O)[C@H](CCCCN)NC(=O)[C@@H](N)Cc1ccccc1)C(C)C)C(C)C)C(=O)N[C@H](C(=O)N[C@@H](CCCCN)C(=O)N[C@@H](CCCCN)C(=O)N[C@@H](Cc1ccc(O)cc1)C(N)=O)C(C)C
MIC (Enterobacter sp.; broth dilution; KCTC 2625): < 3.1 µM

O=C(c1ccccc1O)c1[nH]c(Cl)c(Cl)c1-n1c(C(=O)c2ccccc2O)cc(Cl)c1Cl
MIC (Providencia alcalifaciens; ATCC 9886): > 64 µM

[O-][N+]1=C(Cc2ccccc2)C2=NCCCN2c2ccccc21
MIC (Clostridioides difficile): 8 to 32 µg/mL

OB(O)c1cnn(-c2cccc(Cl)c2)c1
MIC (Citrobacter freundii; bacterial growth; AmpC overproducer clinical isolate; without cefotaxime): > 2050 µg/mL

CC[C@H](C)[C@H](N)C(=O)N[C@@H](CCCNC(=N)N)C(=O)N[C@H](C(=O)N[C@@H](Cc1c[nH]c2ccccc12)C(=O)N[C@@H](CCCCN)C(=O)N[C@@H](CCCCN)C(=O)N[C@H](C(=O)N[C@H](C(=O)N[C@@H](CCCNC(=N)N)C(=O)N[C@@H](CCCCN)C(=O)N[C@@H](Cc1c[nH]c2ccccc12)C(=O)N[C@@H](CCCCN)C(=O)N[C@@H](C)C(=O)N[C@H](C(=O)N[C@@H](Cc1c[nH]c2ccccc12)C(=O)N[C@@H](Cc1c[nH]cn1)C(N)=O)[C@@H](C)CC)C(C)C)[C@@H](C)CC)C(C)C
MIC (Salmonella typhimurium; broth dilution; SL1344): 25 µM

CC[C@H](C)[C@@H]1NC(=O)[C@H](CO)NC(=O)[C@H](CCCCN)NC(=O)[C@@H]2CSSC[C@@H](C(=O)N[C@@H](Cc3ccc(O)cc3)C(N)=O)NC(=O)[C@H](CCCCN)NC(=O)[C@@H]3CSSC[C@H](NC(=O)[C@H](CCCNC(=N)N)NC(=O)[C@H](CC(C)C)NC(=O)[C@H](CC(=O)O)NC(=O)[C@H](CC(=O)O)NC(=O)[C@H](CCC(=O)O)NC(=O)[C@H](CC(N)=O)NC(=O)[C@H](Cc4c[nH]c5ccccc45)NC(=O)C(C)(CC)NC(=O)CNC(=O)[C@H](CC(N)=O)NC(=O)[C@@H](NC(=O)CNC(=O)[C@H](Cc4ccccc4)NC(=O)CN)CSSC[C@H](NC(=O)[C@H](Cc4ccc(O)cc4)NC(=O)CNC(=O)CNC(=O)[C@H](CCCCN)NC(=O)[C@H](Cc4ccc(O)cc4)NC(=O)[C@H]4CCCN4C(=O)[C@@H]4CCCN4C1=O)C(=O)N[C@@H](C)C(=O)N[C@@H](CCCCN)C(=O)N1CCC[C@@H]1C(=O)NCC(=O)N[C@@H](Cc1ccccc1)C(=O)N[C@@H](C(C)C)C(=O)N3)C(=O)N[C@@H](Cc1c[nH]cn1)C(=O)N[C@@H](CC(N)=O)C(=O)N[C@@H](Cc1c[nH]cn1)C(=O)N2 (stereo partly drawn)
MIC (Streptococcus pneumoniae; broth microdilution; BS-441; 18 h): 0.25 µM

CCCC(C)Oc1cccc(NC(=O)c2cccnc2)c1 (stereo not drawn)
MIC (Saccharomyces cerevisiae; S288c wild type): 32 µg/mL

CCCCCCCC(=O)NCCCC[C@H](NC(=O)CCCCCCC)C(=O)N[C@@H](CCCCNC(=O)CCCCCCC)C(=O)NCC(=O)NCC(=O)NCC(=O)N[C@@H](CS)C(=O)N[C@@H](CCCNC(=N)N)C(=O)N[C@@H](CCCCN)C(=O)N1CCC[C@H]1C(=O)N[C@@H](CS)C(=O)N[C@@H](CCCNC(=N)N)C(=O)N[C@@H](CCCCN)C(=O)N1CCC[C@H]1C(N)=O
MIC (Candida tropicalis; broth microdilution; CGMCC 2.197, RPMI-1640; 48 h, 30 °C): 4 µM

CC[C@H](C)[C@@H]1NC(=O)[C@H](CCCNC(=N)N)NC(=O)[C@H]([C@@H](C)O)NC(=O)[C@H](Cc2c[nH]c3ccccc23)NC(=O)[C@H](Cc2ccccc2)NC(=O)[C@H](Cc2c[nH]c3ccccc23)NC(=O)[C@H](CCCNC(=N)N)NC(=O)[C@H](CCCNC(=N)N)NC(=O)[C@H](CCCNC(=N)N)NC(=O)[C@H](Cc2ccccc2)NC(=O)CNC(=O)[C@H](CCCCN)NC(=O)[C@@H](NC(=O)[C@H](CCCNC(=N)N)NC(=O)CNC(=O)CN)CSSC[C@@H](C(N)=O)NC1=O
MIC (Botrytis cinerea; resazurin; synthetic fungal medium; with: KCl 100 mM): 1.5 to 3 µM

CC[C@H](C)[C@H](NC(=O)[C@H](Cc1c[nH]c2ccccc12)NC(=O)[C@H](Cc1ccc(O)cc1)NC(=O)[C@H](CCCCN)NC(=O)[C@H](CC(C)C)NC(=O)[C@@H](N)CO)C(=O)N[C@@H](CCCNC(=N)N)C(=O)N[C@@H](Cc1ccc(O)cc1)C(=O)N[C@@H](CCCCN)C(=O)N[C@@H](CCCNC(=N)N)C(=O)N[C@@H](CCC(N)=O)C(=O)NCC(=O)N[C@@H](C)C(=O)N[C@@H](C)C(=O)N[C@@H](CCCNC(=N)N)C(=O)N[C@@H](Cc1ccccc1)C(N)=O
MIC (Salmonella typhimurium; broth dilution; SL1344): 6.3 µM

CC(=O)N1CCN(c2ccc(OCC3COC(Cn4ccnc4)(c4ccc(Cl)cc4Cl)O3)cc2)CC1 (stereo not drawn)
MIC (Candida albicans; CGMCC 2.209; 48 h, drug alone): 8 µM

COc1ccccc1-c1n[nH]c2nc(NC3CCN(C(=O)Cc4ccc(F)cc4F)CC3)ncc12
relative abundance (bead binding, competition bead pull-down, refers to: LINJ.27.2350; Leishmania donovani axenic amastigote extract; 10 µM; relative to: vehicle): 1.18
